# Experimental data gathered from unrelated publications.
# Lines come from different studies, so protocols differ. ± gives the spread as reported.
Structure (SMILES),cell line,observed,action,method,time,notes,IC50
COc1ccc(-c2csc(C(=O)NOCCCCCC(=O)NO)n2)cc1,neonatal foreskin fibroblasts,cytotoxicity,,sulforhodamine B,72 h,,460 nM
CC(C)CCC[C@@H](C)[C@H]1CC[C@H]2[C@@H]3CC=C4C[C@@H](OC(=O)NCCCN(C)CCCNC(=O)N(CCO)CCNc5ccc(NCCNCCO)c6c5C(=O)c5c(O)ccc(O)c5C6=O)CC[C@]4(C)[C@H]3CC[C@]12C,ARPE-19,cytotoxicity,,CCK-8,48 h,,119 ± 78 nM
CCCc1cc2cc(-n3nc(C(C)C)c4c3CC(C)(C)CC4=O)cc(N3CCC(O)CC3)c2c(=O)[nH]1,SK-OV-3,cell growth or viability,,MTS,,,8220 nM
COc1ccc(CC[C@H]2OC(=O)[C@@H]3CCCCN3C(=O)C(=O)C(C)(C)COC(=O)C=CCCN(C)C(=O)[C@H](CC(C)C)N(C)C(=O)[C@H]3CCCN3C(=O)[C@H](Cc3ccc([N+](=O)[O-])cc3)NC(=O)[C@H](c3ccccc3)NC(=O)CCC(=O)Nc3cccc2c3)cc1OC,HUVEC,thymidine uptake,inhibitor,,,,130 ± 25 nM
C[C@H](c1ccccc1)N1C(=O)C2=Nc3cc(Cl)ccc3CN2C1=S,CCRF-CEM,,,resazurin,72 h,,230 ± 20 nM
CNC(=S)NN=Cc1ccc([N+](=O)[O-])o1,IMR-90,cell growth or viability,,resazurin,,,> 100000 nM
Cn1ncc(-c2ccc3c(=O)[nH]nc(CN)c3c2)c1-c1c(F)c(Cl)cc(OC2CC2)c1C#N,H4,cell viability,,,120 h,relative IC50,80 nM
COc1ccnc(-c2cc(OC)ccn2)c1.[Co+2].[O-]c1c(I)cc(I)c2cccnc12.[O-]c1c(I)cc(I)c2cccnc12,HL-7702 normal hepatocytes,cell viability,,MTT,48 h,,75800 ± 1150 nM
CCn1nc(Cl)c2c1-c1cnc(N)c(c1)O[C@H](C)c1cc(F)ccc1-c1nn(C)cc1C2,"NB1 (ALK amplification, exon 2-3 deletion)",cell viability,,,,,1.99 nM
COc1ccc(CC[C@H]2OC(=O)[C@@H]3CCCCN3C(=O)C(=O)C(C)(C)COC(=O)C=CCCN(C)C(=O)[C@@H](CC(C)C)NC(=O)[C@@H](Cc3ccccc3)N(C)C(=O)[C@@H]3CCCN3C(=O)[C@H](CC(C)C)N(C)C(=O)CCC(=O)Nc3cccc2c3)cc1OC,HUVEC,thymidine uptake,inhibitor,,,,> 20000 nM
OCCCNc1c2ccccc2nc2ccccc12,ARPE-19,cytotoxicity,,CCK-8,48 h,,> 100000 nM
NC(NN=Cc1ccc([N+](=O)[O-])o1)=[S+][Au-][Cl],IMR-90,cell growth or viability,,resazurin,,,> 100000 nM
CC(C)N1C(=O)C2=Nc3ccccc3CN2C1=S,CCRF-CEM,cell growth or viability,,resazurin,72 h,,22000 nM
Cc1cnc2nc1Nc1cccc(c1)COC/C=C/COCc1cc(ccc1OCCN1CCOCC1)N2,HEL 92.1.7 JAK2 V617F,cell growth,,CCK-8,,,1880 nM
NC(=O)c1ccc(-c2ccccc2Cl)c2c3c([nH]c12)CC[C@H](N)C3,HGC-27,cell growth or viability,,,,,21.6 nM
Cc1nc(N(C)c2ccc3c(c2)/C(=C/c2ccccc2)C(=O)N3C)c2ccccc2n1,H22,cell growth or viability,,MTT,,,3120 nM
COc1ccc(CC[C@H]2OC(=O)[C@@H]3CCCCN3C(=O)C(=O)C(C)(C)COC(=O)C=CCCN(C)C(=O)[C@H](CC(C)C)N(C)C(=O)[C@H]3CCCN3C(=O)[C@@H](Cc3ccccc3)N(C)C(=O)[C@H](Cc3ccccc3)NC(=O)CCC(=O)Nc3cccc2c3)cc1OC,HUVEC,thymidine uptake,inhibitor,,,,> 20000 nM
CC[C@H](C)[C@H](NC(=O)[C@H](CCCCN)NC(=O)[C@H]1CCC[C@@H]1NC(=O)[C@H](CC(C)C)NC(=O)CN)C(=O)N[C@H](CC(=O)N[C@@H](CCCCN)C(=O)N[C@@H](CCCCN)C(=O)N[C@H]1CCC[C@@H]1C(=O)N[C@@H](C)C(=O)N[C@@H](CCCCN)C(=O)N[C@@H](CO)CC(=O)N[C@@H](Cc1ccccc1)C(N)=O)[C@@H](C)CC,HUVEC,cytotoxicity,,,,,122 µg/mL
COc1ccc(CC[C@H]2OC(=O)[C@@H]3CCCCN3C(=O)C(=O)C(C)(C)COC(=O)C=CCCN(C)C(=O)[C@H](C)N(C)C(=O)[C@H]3CCCN3C(=O)[C@H](CO)N(C)C(=O)[C@H](Cc3ccccc3)NC(=O)CCC(=O)Nc3cccc2c3)cc1OC,HUVEC,thymidine uptake,inhibitor,,,,> 20000 nM
Cc1ccc2c(Cl)cc(Cl)c([O-])c2n1.Cc1ccc2c(Cl)cc(Cl)c([O-])c2n1.Clc1ccnc2c1ccc1c(Cl)ccnc12.[Co+2],HL-7702 normal hepatocytes,cell viability,,MTT,48 h,,65520 ± 450 nM
C[C@H](c1ccccc1)N1C(=O)C2=Nc3ccc(F)cc3CN2C1=S,CCRF-CEM,cell growth or viability,,resazurin,72 h,,516 nM
O=C(CCc1ccccc1)N1C(=O)C2(NC(c3ccc(F)cc3)C3(C(=O)Nc4ccccc43)N2Cc2ccc(F)cc2)c2ccccc21 (stereo not drawn),L02,cell growth or viability,,MTT,48 h,,66000 nM
COc1ccc(CC[C@H]2OC(=O)[C@@H]3CCCCN3C(=O)C(=O)C(C)(C)COC(=O)C=CCCN(C)C(=O)[C@H](Cc3ccccc3)N(C)C(=O)[C@H]3CCCN3C(=O)[C@H](C)N(C)C(=O)[C@H](Cc3ccccc3)NC(=O)CCC(=O)Nc3cccc2c3)cc1OC,HUVEC,thymidine uptake,inhibitor,,,,737 ± 130 nM
CC[C@H](C)[C@H](NC(=O)[C@H](CC(=O)O)NC(=O)[C@H](Cc1ccccc1)NC(=O)[C@H]1CCC[C@@H]1NC(=O)CN)C(=O)N[C@H](CC(=O)N[C@@H](CCCCN)C(=O)N[C@@H](CCCCN)C(=O)N[C@H]1CCC[C@@H]1C(=O)N[C@@H](C)C(=O)N[C@@H](CCCCN)C(=O)N[C@@H](CO)C(=O)N[C@H](CC(N)=O)Cc1ccccc1)[C@@H](C)CC,HUVEC,cytotoxicity,,,,,52.1 µg/mL
CCOc1cncc(-c2ccc(NC(=O)C3(c4ccnc(NS(=O)(=O)C5CC5)n4)CCOCC3)nc2)n1,PL-21,cell proliferation,,CellTiter-Glo,72 h,,117 nM
O=C1Nc2ccccc2C12NC(c1ccc(Cl)c(Cl)c1)C1(C(=O)Nc3ccccc31)N2Cc1ccc(Cl)c(Cl)c1 (stereo not drawn),L02,cell growth or viability,,MTT,48 h,,> 100000 nM
NCCOc1cc(NC(=O)c2cc(OCc3cn(Cc4ccc(C(=O)O)cc4)nn3)cc(C(=O)Nc3cc(OCCN)c4ccccc4n3)n2)nc2ccccc12,U2OS,cell growth or viability,,ATP luminescence,72 h,,> 40000 nM
CC(=O)[O][Pt]([NH2])([NH2])([Cl])([Cl])[O]C(=O)C(C)c1ccc(CC(C)C)cc1 (stereo not drawn),BCPAP,cell growth or viability,,MTT,72 h,,1980 nM
CC(C)c1ccc(N(C)c2ccc3c(c2)OCC[C@H]3CNc2cnccc2C(=O)O)cc1,J82,cell growth or viability,,ATP luminescence,7 days,,≥ 10000 nM
COc1ccc(CC[C@H]2OC(=O)[C@@H]3CCCCN3C(=O)C(=O)C(C)(C)COC(=O)C=CCCN(C)C(=O)[C@H](Cc3ccccc3)NC(=O)[C@H](Cc3ccccc3)N(C)C(=O)[C@@H]3CCCN3C(=O)[C@H](CC(C)C)N(C)C(=O)CCC(=O)Nc3cccc2c3)cc1OC,HUVEC,thymidine uptake,inhibitor,,,,> 20000 nM
Cc1[nH]c(=S)[nH]c(=O)c1/N=N/c1nnc(S)s1,Vero,,,MTT,72 h,,17.1 ± 2.54 µg/mL
Nc1nnc(-c2ccccc2O)cc1N1CC2CCC(C1)N2c1ccnc(C#CCCN2CCCCCC2)c1,NCI-H522 SMARCA4/SMARCA2-deficient,cell viability,,CellTiter-Glo,168 h,,> 1000 nM
C[C@H](c1ccccc1)N1C(=O)C2=Nc3ccc(Br)cc3CN2C1=S,CCRF-CEM,,,resazurin,72 h,,480 ± 30 nM
Cc1c(C)c2cccnc2c2ncccc12,L02,cell growth or viability,,MTT,48 h,,> 50000 nM
O=C(O)C(CO)NCc1cc(Cl)c(OCc2cccc(-c3ccccc3)c2Br)cc1OCc1cccnc1 (stereo not drawn),human PBMC,,,MTT,,,> 10000 nM
Cc1ccc([N+](=O)[O-])cc1S(=O)(=O)N(C)/N=C/c1cnc2ccc(Br)cn12,IGROV-1,cell viability,,MTS,,,251 nM
CCCC[N+]1=c2cc3c4cc2[O][Mn-2]1(=[C]=O)(=[C]=O)(=[C]=O)[n+]1ccc(cc1)C(=O)OCCOC(=O)c1cc[n+](cc1)[Mn-2](=[C]=O)(=[C]=O)(=[C]=O)([O]3)[N+]=4CCCC,HEK293,cell growth,,MTT,48 h,LED photolysed 1 h,> 50000 nM
CNS(=O)(=O)Nc1nccc(Cc2c(C)c3ccc(Oc4ncccc4F)cc3oc2=O)c1F,NCI-H1568,cell viability,,,7 days,,225 nM
COc1ccc(CC[C@H]2OC(=O)[C@@H]3CCCCN3C(=O)C(=O)C(C)(C)COC(=O)C=CCCN(C)C(=O)[C@H](CC(C)C)N(C)C(=O)[C@H]3CCCN3C(=O)[C@H](Cc3ccc(-c4ccccc4)cc3)NC(=O)[C@H](c3ccccc3)NC(=O)CCC(=O)Nc3cccc2c3)cc1OC,HUVEC,thymidine uptake,inhibitor,,,,194 ± 51 nM
N#Cc1c(N)nc2c(c1-c1cccs1)Cc1cc(O)ccc1-2,MOLT-4,cell growth or viability,,ATP luminescence,,,37900 nM
COc1ccc(CC[C@H]2OC(=O)[C@@H]3CCCCN3C(=O)C(=O)C(C)(C)COC(=O)C=CCCN(C)C(=O)[C@H](CC3CCCCC3)NC(=O)[C@@H](Cc3ccccc3)N(C)C(=O)[C@@H]3CCCN3C(=O)[C@H](CC(C)C)N(C)C(=O)CCC(=O)Nc3cccc2c3)cc1OC,HUVEC,thymidine uptake,inhibitor,,,,> 20000 nM
C1=[N+]2CCCC[N+]3=Cc4ccc5[n]4[Au-]23[n]2c1ccc2-c1nc2ccccc2nc1-5.F[P-](F)(F)(F)(F)F,SF-539,,,,,NCI60 five-dose screen,3700 nM
